# Measured values pooled from the literature.
# Each numbered part is a random draw from the data of one study; scales do not carry over between parts. Changes are numbered by the printed parent chain.

# Sample 1 — target: CCNA2, cyclin fold, Cln2 fusion (human); technique: yeast growth competition, sequencing; matrix: yeast; setting: strong parent motif; baseline: not given; direction: higher = stronger binding
# Parent: WEE1 docking peptide (human); HKTFRKLRLFDTP
Variant,normalised enrichment score
HKTFRKLRLNDTP [F10N],0.67
VKTFRKLRLFDTP [H1V],1.87
HKTFFKLRLFDTP [R5F],1.59
HKTFRKLRLEDTP [F10E],1.35
HKTFRKTRLFDTP [L7T],1.08
HKTFRALRLFDTP [K6A],1.31
HKTFRKLRLFDHP [T12H],1.76
HRTFRKLRLFDTP [K2R],2.53
HKTFRELRLFDTP [K6E],0.513
HKTFRKLRSFDTP [L9S],1.34
HKTFRKLRLFDTA [P13A],2.28
HKTKRKLRLFDTP [F4K],1.69
HKTFRKLCLFDTP [R8C],2.11
HKTFRFLRLFDTP [K6F],-0.378
HKTFKKLRLFDTP [R5K],1.4
HKTFRKLRLTDTP [F10T],1.11
FKTFRKLRLFDTP [H1F],1.18
HKWFRKLRLFDTP [T3W],1.2
HKTFHKLRLFDTP [R5H],2.21
HKTFRKLRLFDGP [T12G],2.07
HKTFRKLRLKDTP [F10K],1.21
HKTFRKCRLFDTP [L7C],2.44
EKTFRKLRLFDTP [H1E],1.6
HKTFRKLRLYDTP [F10Y],0.164
HKTFRKLRLFDTG [P13G],0.516

# Sample 2 — technique: RNA Bind-n-Seq; molecule type: RNA; matrix: in vitro; concentration: 365 nM; baseline: no-protein control; direction: higher = stronger binding
# Target: RNA binding protein fox-1 homolog 2, RRM domain, GST-SBP tag (RBFOX2, Homo sapiens, UniProt O43251-10, residues 100-194)
# Setting: natural RNA segment, single round, ends assumed
# Shared flanks, not repeated: GGGAGUUCUACAGUCCGACGAUC … UGGAAUUCUCGGGUGCCAA
# Target sequence (chain): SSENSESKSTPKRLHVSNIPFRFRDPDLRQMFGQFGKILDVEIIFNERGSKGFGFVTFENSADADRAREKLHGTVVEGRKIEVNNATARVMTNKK
Strand,RBNS enrichment (R)
UGUAAACUUGGAGGAGAGAUUUUUCUAUCAUGUAGAGUAGGUAUUUUUUAUAGAUUGAAGGUUGAUCAAUUUUUUUAAUACUUUCCAGAGAGAAAACUAUCUGUGUAUAC,0.752
UAGGCUAAUAAUAAUAAUAAAAAACCAAAAGGCAUCUUGUUGUGAUUUCUAUGCCAACAUCCUGCCUACCUACAUAUCCCUAUCUUGGCUUAACCCGUUUCUCUGGAUUU,0.251
AGCACAACAGGGAUGGUCGUCGGCAUUGUGGCUGCUGCCGCCCUCUGCAUCUUGAUCCUCCUGUACGCCAUGUACAAGUACAGGAACAGGGACGAGGGGUCCUAUCAAGU,0.338
UUUUUCUUAACAAGUUAGAAAAUUCAGCUCCUUUCUGUCCUGGAGCUAGCAAAGACUUGUGUGAUGCCUCCGAAGGGGCUCUGAGUUCUGGGGUGGGAGUUUUGCUCUCU,0.427
UAUAUGGACUAUAUUGUCUCCCUGUCCUUGUUCUGAUAAUGUACAGACUCAGUUUUUCUUAUGUUAUACAAAAUAUUAGCCAUGCAUUUAUUAUGUAAAGGACUACCCAU,0.391
UUCACUUUCCAAAGAAUUCAUCUUCCAGCCAGUCCCGUUGUGUCCUUGCUUGUCUGCAUUUAUUAGUGGUAAUAUUCUUUUACGUAUAAUAAAUUUUUAUACCCAAGCCU,0.473
CCCUCUAUCAAGUGAGGAGAUUAAGGCUUAAAGAAAGGAAAGGACUUGCCAGCCACCACAGGGCUCAUGAGGGGCUUGAACCCAUGUCGUGUGUCUCUACCACAGCUGAC,0.377
GUCUGCAUUUGAUGUAAUGCCUUAAUUACUGGGGCCACAUUCACGUUGACUGUCUCAGAGACUGUAAGCUCCCGGAGAGCAGGGUUGCUGUAAUGGGAAUGUUUAAGUGU,1.49
GCUGUUUCACAAUACCUCAUGCUUCACUUAGCCAUGGUGGACCCAGCGGGCAGGUUCUGCCUGCUUUGGCGGGCAGACACGCGGGCGCGAUCCCACACAGGCUGGCGGGG,0.249
UGAAAGUAUAAAGGUUUCCUUGUGUUUUUCUGUGAGUGAACAUUUUGUAAUAAAUUAACAAGUUUGUACAAUUUCCUUGGUCCCUUGUUGUACAUCGACACAUAUAUCUC,0.373
GCUGACCCUGCCCUGCCAGCUGAGACUGGGAGACGGAGUGGGCUCUGAUCCCAGGGCUUCCAGGAAAGCUCUGGCUUUGGAGCAGAAGCGGGUUCUAGGACUUAGUGCCC,0.297
AACUUGUAUAUCAUGCUCCCUCAAAGAAUGUGCGAUAGAUUAUUUUAAGACCAUGAUAAUAGAGUAAAAAGGAAAGAAAGCCAGAAAUUACAAUUUUGGAUGCUAAAAAG,1.39

# Sample 3 — technique: DHFR PCA, deep sequencing; matrix: yeast; added: (+)-ABA 200 µM; baseline: wild-type fitted maximum; direction: higher = stronger binding
# Target: ABI1, truncated, D143A, DHFR fusion (Arabidopsis thaliana)
# Setting: methotrexate growth selection, single substitutions
# Parent: PYL1, truncated, DHFR fusion (Arabidopsis thaliana); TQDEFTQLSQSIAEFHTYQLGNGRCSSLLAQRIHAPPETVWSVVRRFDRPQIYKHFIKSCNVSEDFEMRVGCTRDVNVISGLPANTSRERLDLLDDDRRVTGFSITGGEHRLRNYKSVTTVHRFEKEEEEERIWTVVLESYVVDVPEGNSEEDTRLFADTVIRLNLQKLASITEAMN; partner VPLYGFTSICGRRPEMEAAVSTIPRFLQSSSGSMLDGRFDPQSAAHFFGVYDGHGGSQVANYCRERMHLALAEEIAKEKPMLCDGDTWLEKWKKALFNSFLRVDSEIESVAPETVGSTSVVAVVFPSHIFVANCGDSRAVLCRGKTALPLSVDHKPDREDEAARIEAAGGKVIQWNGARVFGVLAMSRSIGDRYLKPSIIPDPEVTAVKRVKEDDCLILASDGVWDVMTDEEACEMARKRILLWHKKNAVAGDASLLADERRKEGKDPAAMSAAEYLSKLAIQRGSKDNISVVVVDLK
Variant,relative binding score
G148S,83.4%
G23C,83.1%
R113S,100%
R45G,46.6%
F124N,89.9%
V40M,-3.4%
L20T,102%
S87M,12.7%
R90F,41.5%
A35F,-5.24%
A35S,88.4%
G81P,40.1%
A84Y,64.7%
A84F,49.6%
N61L,99.7%
V143E,-0.477%
Y18W,94.9%
I133R,106%
R123D,94.8%
H16E,-10.1%
I12N,42.1%
L20V,104%
W41T,-1.2%
D3K,96.8%

# Sample 4 — technique: universal PBM; molecule type: double-stranded DNA, one strand shown; matrix: in vitro; concentration: not given; direction: higher = stronger binding
# Target: Sal-like protein 4, full length isoform B (SALL4, Homo sapiens, UniProt Q9UJQ4-2, residues 1-616)
# Setting: 8-mer, flanks averaged, mean of replicates
# Target sequence (chain): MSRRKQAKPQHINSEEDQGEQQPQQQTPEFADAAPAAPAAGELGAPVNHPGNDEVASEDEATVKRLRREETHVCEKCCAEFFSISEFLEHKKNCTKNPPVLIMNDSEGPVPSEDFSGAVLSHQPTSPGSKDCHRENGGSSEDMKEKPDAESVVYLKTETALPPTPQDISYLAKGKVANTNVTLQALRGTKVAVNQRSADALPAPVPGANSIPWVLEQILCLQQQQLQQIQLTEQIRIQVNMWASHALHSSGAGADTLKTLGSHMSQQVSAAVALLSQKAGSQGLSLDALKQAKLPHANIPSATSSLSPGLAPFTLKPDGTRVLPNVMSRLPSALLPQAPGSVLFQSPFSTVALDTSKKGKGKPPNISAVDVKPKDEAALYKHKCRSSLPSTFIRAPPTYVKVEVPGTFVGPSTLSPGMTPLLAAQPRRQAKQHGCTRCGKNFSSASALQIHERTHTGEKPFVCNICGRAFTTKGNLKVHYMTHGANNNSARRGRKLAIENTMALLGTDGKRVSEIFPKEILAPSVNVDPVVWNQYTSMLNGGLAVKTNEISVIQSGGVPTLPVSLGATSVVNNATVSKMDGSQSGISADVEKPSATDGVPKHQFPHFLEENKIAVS
Strand,E-score
ATCCGTCG,-0.1
CAACCCCG,-0.286
GACTGACA,0.0355
AAATGGCC,-0.126
AGGCGGGA,-0.21
CTCAGTAA,0.0413
ATTTGCCA,0.0928
ACCAGGCC,-0.24
CGTCTGAA,-0.0401
CTCGCTCC,-0.239
GAGCTACC,-0.0943
CCCCTAGA,0.0635
ACAACAAG,0.101
ACGTATCC,-0.176
CCAAGTCA,-0.0572
TACTGGGA,0.0845
CGAGTGGC,-0.189
ATTTATTG,0.328
AAGAGCAC,-0.0866

# Sample 5 — technique: protein-binding microarray; molecule type: double-stranded DNA, one strand shown; matrix: in vitro; concentration: 940 nM top; setting: 60-bp whole probe; added: salmon DNA 0.4 mg/ml; baseline: random background probes; direction: higher = stronger binding; shared flanks, not repeated: GCCTAGCAC … GTCTTGATTCGCTTGACGCTGCTG
# Target: Interferon regulatory factor 5, full length, phosphomimetic (IRF5, Homo sapiens, UniProt Q13568-2, residues 1-514, S451D/S453D/S456D/S462D)
Strand,fitted relative affinity [z-score]
ACCGCATTCGAATTCAGAATGTGCTAG,-0.317
GACGGTTGCCTTCTCCTGACGTGCTAG,0.279
TTAGGACTGCTTTGCCTTTAGTGCTAG,-0.432
TTAGGTATCGCTCTCGGTTAGTGCTAG,6.17
GACGATATCGGGTTTCGAGACGTGCTA,2.09
GACGATATCGGGTTTCGAGCCGTGCTA,1.3
TTAGGTATCGGTTTCGGTCAGTGCTAG,12.9
GACGGACTGGGTTTCGGGAAGTGCTAG,2.44
TTAGGACTGGGACTGGGTGAGTGCTAG,-0.335
TTAGAACTGAGATTCGATTAGTGCTAG,0.118
TTAGGTTCGGGTTTCGGTTAGTGCTAG,6.69
TTAGGACTGGACTATCGGTTAGTGCTA,-0.225
CCCTATTTAAGGCATCTGCAGGTGCTA,0.0568
TTAGGCTTCCTACTGCTTTAGTGCTAG,-0.016
TCATTTTTCTGATTGAAACTGTGCTAG,0.581
TCAAATCTCCCATTATAACTGTGCTAG,0.996
GCCGGACTGGGTTTCGGGACGTGCTAG,2.91
TTAGGTTTCGGTTTCAGTTAGTGCTAG,15.3
GACGGACTGGGTTTCGGGATGTGCTAG,2.59
TCATGTTTGTCACTCTCACTGTGCTAG,1.11
ATAGGACTGCTTCTCCTTTAGTGCTAG,-0.0219
GATGTTTTAGGTCCCTTTTCGTGCTAG,0.477
TCATATTCAGGTATATAACTGTGCTAG,0.512

# For quick reference, copied from above (sample 4):
Strand,E-score
CTCAGTAA,0.0413
AAGAGCAC,-0.0866
ACCAGGCC,-0.24
AGGCGGGA,-0.21
CGTCTGAA,-0.0401
ATTTATTG,0.328
ATCCGTCG,-0.1
CAACCCCG,-0.286
ACAACAAG,0.101
TACTGGGA,0.0845
CCAAGTCA,-0.0572
